Published values pooled from the literature.
Every numbered part comes from another study and shows a few of its results, in no order. “And” joins repeats or separate records; there may be more than shown. Positions count from the first letter of the parent shown.

Set 1 — effect on: peptide-MHC binding; form: peptide; tested at: concentration not given; endpoint: binding
Target: HLA class I histocompatibility antigen, C alpha chain, allele C*04:01 (Homo sapiens, UniProt P10321)
REMINHYQV: inactive
FVDTMSIYI: inactive
ILMARYMSK: inactive
ISDSAQNMM: inactive
REWFMDLNL: inactive

Set 2 — target: CCND1, cyclin fold, Cln2 fusion (human); method: yeast growth competition, sequencing; sample: yeast; setting: strong parent motif; relative to: not given; direction: higher = stronger binding; endpoint: normalised enrichment score; parent: viral docking peptide; YKVKRRLVFGADD
L7A: -0.315
K2N: 2.78
G10M: 1.06
R5L: -0.0559
R5K F9L: -0.2
G10S: 1.83
A11G: 2.37
D12L: 0.616

Mixed results
CHRM1: Muscarinic acetylcholine receptor M1 (CHRM1, Homo sapiens, UniProt P11229)
Chain of UniProt P11229 (whole entry, looked up): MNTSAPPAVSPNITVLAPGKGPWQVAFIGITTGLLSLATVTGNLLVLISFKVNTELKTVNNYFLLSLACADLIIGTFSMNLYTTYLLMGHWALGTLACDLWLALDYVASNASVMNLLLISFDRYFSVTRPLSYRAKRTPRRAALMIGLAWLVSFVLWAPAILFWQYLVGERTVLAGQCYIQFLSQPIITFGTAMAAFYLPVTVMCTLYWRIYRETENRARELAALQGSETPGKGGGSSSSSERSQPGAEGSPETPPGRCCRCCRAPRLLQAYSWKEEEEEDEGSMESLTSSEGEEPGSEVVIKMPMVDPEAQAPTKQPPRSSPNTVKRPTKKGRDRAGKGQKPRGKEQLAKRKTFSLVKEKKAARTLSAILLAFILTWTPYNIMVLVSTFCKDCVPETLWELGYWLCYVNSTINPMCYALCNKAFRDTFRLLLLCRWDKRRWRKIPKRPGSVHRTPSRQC
Cc1ncc(-c2cc(Cl)ccc2F)cc1-n1c(=O)n(CC(N)=O)c2ccccc21 — inhibition (CHRM1; ligand displacement; 10 µM): -1.17%
CC(C)S(=O)(=O)c1cc2c(Nc3ccc4sc(C5CCCC5)nc4c3)ccnc2cc1OCCO — viability (L929 RIPK3 knockout; 1.563 µM, added: zVAD): 91.2% and 90.9% and 97.8% and 88.8%
CO[C@H]1CC[C@H](CNc2ccc(S(=O)(=O)NC(=O)c3ccc(N4CCN(CC5=C(c6ccc(Cl)cc6)CC(C)(C)CC5)CC4)cc3Oc3cnc4[nH]ccc4c3)cc2[N+](=O)[O-])CC1 — inhibition (CHRM1; ligand displacement; 10 µM): 4.59%
CC[C@H](C)c1nc2cc(Nc3ccnc4ccc(S(=O)(=O)C(C)C)cc34)ccc2s1 — viability (L929; necroptosis protection, CCK-8; 2.5 µM, added: TNF-α plus zVAD): 42.9%

For quick reference, copied from above (mixed results):
CC(C)S(=O)(=O)c1cc2c(Nc3ccc4sc(C5CCCC5)nc4c3)ccnc2cc1OCCO — viability (L929 RIPK3 knockout; 1.563 µM, added: zVAD): 91.2% and 90.9% and 97.8% and 88.8%
CO[C@H]1CC[C@H](CNc2ccc(S(=O)(=O)NC(=O)c3ccc(N4CCN(CC5=C(c6ccc(Cl)cc6)CC(C)(C)CC5)CC4)cc3Oc3cnc4[nH]ccc4c3)cc2[N+](=O)[O-])CC1 — inhibition (CHRM1; ligand displacement; 10 µM): 4.59%
